Assay results from different studies.
A part holds a random share of what one study measured. Positions count from the first letter of the parent shown.

Study 1 — method: RNA Bind-n-Seq; molecule type: RNA; matrix: in vitro; concentration: 365 nM; baseline: no-protein control; direction: higher = stronger binding
Target: RNA binding protein fox-1 homolog 2, RRM domain, GST-SBP tag (RBFOX2, Homo sapiens, UniProt O43251-10, residues 100-194)
Notes: natural RNA segment, single round, ends assumed
All sequences stand within: GGGAGUUCUACAGUCCGACGAUC … UGGAAUUCUCGGGUGCCAA
Target sequence (chain): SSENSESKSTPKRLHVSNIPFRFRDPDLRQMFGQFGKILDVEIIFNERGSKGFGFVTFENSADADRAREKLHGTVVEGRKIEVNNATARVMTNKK
Under “RBNS enrichment (R)”, `CAGCACCAGGGAAGCUAAGGUGGAAGGUUGUUUGAGUUUGGAACUGGGCUAGAGAGUGAGUUAUUGCUCACUCUGAGUUCUGCGCUACUCUGGGGGACUCUGUUUCAAGG` is recorded as 0.411.
`AUCAACCUAAGUUGGAAACAGAAAGUGUGUCUAGUGUCAUUGAAGUGCGUGCUUGGCAGUUCCAUGUUACCUACCACCCAUUAGUUAGCAAGCGAACUUAGUGCCACAGG`: “RBNS enrichment (R)” 0.741.
Under “RBNS enrichment (R)”, `GUGCCGGGAUGGGAGGGCUGUGUUAUGAUUACAGCAUGUUUGGCAUUUUGUACAUUCAAUAGAGGAAAGACUAACAUAUGCACUUUAUCUCAAGAUCUUCCAGUGCAUAU` is recorded as 7.47.
`UCUCUCCUGGGCAGGAAAGCCCUCCUAGGGGAGAUUUCCAGGAGAUGUGGCCUUGACGAGUUUCUUCUCCUCCUGAUUCAAUGGAAUCUCCCAUAAACACCAAAUGAUUG` — result for “RBNS enrichment (R)”: 0.589.
For `UGGCCAUAAAUACUCAAUCUACCAGUUGGAAAGGGUAUCUAUUUCAAGAUGGGGUGGCGUUUUUCCCAUACUCACUCCUUCUUGAUUCUUCACUGUGGUCUUUUCCAGAU`, “RBNS enrichment (R)” read 0.283.
Under “RBNS enrichment (R)”, `AUUGUUUCACACAAAAAUUAAAAGUUUCCUAAUUAAUGUUGUAUUCAUAUAUGUAGGCUCUGAAAUGUUGUGAUGCUUAUUGCUUCUGUAUUUCUUCUCUACUCCCUAGU` is recorded as 0.403.
For `ACUGGUCGGAUAACUCCGCCUGCUGCCCACAUUCCUCUUUCUAGUCCUCCCACCUGCCUUCCUCCAUACAAACUAACAGUCUCAUGGGGGGAAGAAAGCAAGGGACAAAG`, “RBNS enrichment (R)” read 0.19.
`CCCGCCUGCUCCCUUCCUGACCUCCCCUGACCCCGAAGAUCACUACCUCUGUCAUUCAGGCAUUGGGGUACAUCCUGAUAAGUCGUGUCAGAACUGCCAAUUUCAGGACU`: “RBNS enrichment (R)” 0.493.
Under “RBNS enrichment (R)”, `CUGUGUAGCUGAGCAAGGUCUGCUCUCCAGAGGAACACAUCUGCAUUGAACACAUCUGCAAGUACAAUGUCUUGAUCCAAAACAGCAAAUAGGAAAUCAUGUUCUUCCCA` is recorded as 0.345.
Under “RBNS enrichment (R)”, `CACCUGCAGAGGUGCCCAUCAGGGCGAGUUCUCAGGUGUCUGUUGCUGUGCCAUGGGGGCCUUCUUCCUGGCCCUGUGCCCCUCAAGCAGGCUCUGCCCACCCACCCUCC` is recorded as 0.289.
For `GCUGGGCUUUGGACAGAAAAGAGAAGGGGCUGGAGCAGACAGAGCACAGGACCUGUCCCUGUGAGCGCCUCGGUGGUGCCAAGCCUGCAGGGAGUGGGAGCCGGGUGGAC`, “RBNS enrichment (R)” read 0.883.
Under “RBNS enrichment (R)”, `UGGUUUUCUUUGCUUUAGCUCGAGAAAGCGGCAGCAAACAGAAUACAGAAUGAAUGGAGACUGGGUUCCUGAGAAAAGCUUUGAACACACGGGACUACAGAUGGUGCCCU` is recorded as 0.734.

Study 2 — method: protein binding microarray; molecule type: double-stranded DNA, one strand shown; matrix: in vitro; concentration: not given; baseline: not given; direction: higher = stronger binding
Target: Histone acetyltransferase KAT6A, both winged helices, GST fusion (KAT6A, Homo sapiens, UniProt Q92794, residues 1-181)
Notes: 8-mer, flanks averaged, mean of 2 arrays, mostly near background
Construct (chain): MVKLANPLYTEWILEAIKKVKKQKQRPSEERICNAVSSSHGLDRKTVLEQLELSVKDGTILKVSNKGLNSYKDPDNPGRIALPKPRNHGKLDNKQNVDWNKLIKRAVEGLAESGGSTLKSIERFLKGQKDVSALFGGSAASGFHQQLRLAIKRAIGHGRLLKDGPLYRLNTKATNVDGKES
`CGCGTTTA` has an E-score of 0.226.
The E-score of `GCCCGAGC` is reported as 0.129.
`TCGCTAGA` has an E-score of -0.0253.
With `CTCCTCGC` the E-score was -0.0258.
For `ATAAGCTC`, the E-score was -0.126.
With `CGTGGTAC` the E-score was 0.022.
`CGTCCCAC` has an E-score of 0.0417.
With `ATCCGAAT` the E-score was -0.00203.
The E-score of `GTGTCAAC` is reported as -0.00326.
With `ATAGGAAT` the E-score was -0.233.
The E-score of `AAGTAACG` is reported as -0.0784.
For `GCGGTGAA`, the E-score was 0.194.
With `CTTGCCCA` the E-score was -0.119.
For `ATTGCGAA`, the E-score was 0.0973.
With `CGTGCAGA` the E-score was -0.0181.
For `AAACTTGA`, the E-score was -0.0462.

Study 3 — method: RNA Bind-n-Seq; molecule type: RNA; matrix: in vitro; concentration: 200 nM; notes: whole 134-nt RNA, ends assumed; with: 150 mM LiCl; baseline: input library; direction: higher = stronger binding; all molecules: 7-deaza-guanosine replaces G
Target: Fragile X messenger ribonucleoprotein 1, C-terminal low-complexity region (Fmr1, Mus musculus, UniProt P35922)
All sequences stand within: GGGAGUUCUACAGUCCGACGAUC … UGGAAUUCUCGGGUGUCAAGG
For `UCAAGUCCUGUGCUACACAUCGUAUGUACCGAAUCGGAGGUUUGGAAAAAAAGGAAAGUAUUAUGUUACGCCGUUCGGAUCUGCACUUCC`, the log2 enrichment was -1.66.
`UGGGGGGUGGAUUUUGUUUAUUUUUUUAGCUCAUUUCCAGGGGUGGGAAUUUUUUUUUAAUAUGUGUCAUGAAUAAAGUUGUUUUUGAAA` has a log2 enrichment of 1.47.
For `AGAGAAUAAGAAUUCAGCUGACAGGAGGCCUCUAUCCUGUCCCUCCACCCCACCCUCCACCUCAAUCCCCUCCCAUCUUCCCCAGACCUA`, the log2 enrichment was 1.45.
For `UCCUGUGCUACACAUCGUAUGUACCGAAUCAAAUUUUUAAAUUUUUUUAAACCCCCAAAAAAGUAUUAUGUUACGCCGUUCGGAUCUGCA`, the log2 enrichment was 0.688.
For `UGGGAGGUGGAUUUUGUUUAUUUUUUUAGCUCAUUUCCAGGGGUGGGAAUUUUUUUUUAAUAUGUGUCAUGAAUAAAGGUGUUUUUGAAA`, the log2 enrichment was 0.608.
`CACAGACAACACGCAACCACACAGACACAGAGGGAAGGGGUUGGGAUGGGGACAGGGUGCACAGCAGGGCGGGGUAGGACCCCAGCCCCU` has a log2 enrichment of 1.11.
The log2 enrichment of `AGUCCUGUGCUACACAUCGUAUGUACCGAAUCGGGUUUUGGGGUUUUGGGUUUUGGGGAAAGUAUUAUGUUACGCCGUUCGGAUCUGCAC` is reported as -0.477.
`ACCAUGCAGGUGGGCAUCUUUGGGAAGUGGGGCAAGGGGGGGAUAGCGAGGGGGGUAACACUUUGGGAACAGGUGGUCCCAGGUCGUUUC` has a log2 enrichment of 0.891.
With `UGCUGUUAUCUGGAACUCCUACCUGUCCUGGAAGGCACAUCGGCUCUAAGCCUGCCUCACUCCAUCGUUUCCACCUUGCAGUGAUGCAGC` the log2 enrichment was -2.23.
The log2 enrichment of `UUGAGAAGAAGCAAAAAGAGAUGGAUGAAGCUGCUACGGUGAGAGAAAACCCACUAUCGAUUCCACUCACCACUUACCUCCUUCCCUUAC` is reported as 0.157.
For `UCCUGUGCUACACAUCGUAUGUACCGAAUCGGAAAAAAGGGAAAAAAGGGGAAAAAAGGGAAAGUAUUAUGUUACGCCGUUCGGAUCUGC`, the log2 enrichment was -0.793.

Study 4 — method: universal PBM; molecule type: double-stranded DNA, one strand shown; matrix: in vitro; concentration: 600 nM; direction: higher = stronger binding
Target: Sal-like protein 4, full length isoform A (SALL4, Homo sapiens, UniProt Q9UJQ4, residues 1-1053)
UniProt Q9UJQ4, sequence (whole entry, looked up): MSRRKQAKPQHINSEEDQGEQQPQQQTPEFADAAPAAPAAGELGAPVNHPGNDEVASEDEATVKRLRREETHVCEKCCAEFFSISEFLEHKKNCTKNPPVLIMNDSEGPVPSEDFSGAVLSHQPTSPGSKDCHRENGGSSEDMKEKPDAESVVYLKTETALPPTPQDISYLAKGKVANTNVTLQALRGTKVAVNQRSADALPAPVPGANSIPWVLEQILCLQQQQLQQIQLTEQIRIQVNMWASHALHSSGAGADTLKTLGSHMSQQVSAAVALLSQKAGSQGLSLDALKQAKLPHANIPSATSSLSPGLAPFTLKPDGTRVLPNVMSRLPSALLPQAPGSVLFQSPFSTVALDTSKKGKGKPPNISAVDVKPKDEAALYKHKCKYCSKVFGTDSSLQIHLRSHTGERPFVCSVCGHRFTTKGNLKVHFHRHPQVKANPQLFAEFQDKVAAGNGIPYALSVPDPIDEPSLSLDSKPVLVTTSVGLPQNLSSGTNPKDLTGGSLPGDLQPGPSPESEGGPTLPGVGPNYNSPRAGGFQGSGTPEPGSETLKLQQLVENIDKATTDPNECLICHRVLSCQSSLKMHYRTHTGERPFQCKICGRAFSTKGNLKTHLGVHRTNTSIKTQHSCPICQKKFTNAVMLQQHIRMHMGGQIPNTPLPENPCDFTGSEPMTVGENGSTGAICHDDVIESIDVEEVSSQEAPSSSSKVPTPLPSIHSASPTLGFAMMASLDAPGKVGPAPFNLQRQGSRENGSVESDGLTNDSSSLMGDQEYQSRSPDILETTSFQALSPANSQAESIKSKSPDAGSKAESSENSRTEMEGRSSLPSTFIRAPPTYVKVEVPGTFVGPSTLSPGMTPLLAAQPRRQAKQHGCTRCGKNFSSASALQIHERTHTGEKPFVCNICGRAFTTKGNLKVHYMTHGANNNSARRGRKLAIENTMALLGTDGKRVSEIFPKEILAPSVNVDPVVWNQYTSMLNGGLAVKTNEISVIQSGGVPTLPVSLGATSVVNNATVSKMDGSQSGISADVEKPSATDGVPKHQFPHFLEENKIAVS
Notes: 8-mer, flanks averaged, mean of replicates
`CGTCTAAC` gave an E-score of 0.00993.
For `AACGCCAA`, the E-score was 0.114.
For `TGGAGCCA`, the E-score was -0.147.
With `CTGCTTCA` the E-score was -0.155.
For `AGCGTTTA`, the E-score was -0.0652.
For `CAGACCAC`, the E-score was -0.241.
For `AGCGTCAA`, the E-score was 0.0492.
`ATAAATTG` gave an E-score of 0.389.
`AAGGCAAC` gave an E-score of 0.012.
The E-score of `ATTCTTAA` is reported as 0.193.
`ATTTCCAG` has an E-score of 0.0832.
With `TACGCAAA` the E-score was 0.09.
For `ACAGATCG`, the E-score was -0.11.
For `ACGTCACC`, the E-score was -0.134.
The E-score of `GGTTACGA` is reported as 0.0133.
For `CCGGTACC`, the E-score was -0.296.
With `CGATAGAG` the E-score was -0.0356.
The E-score of `ACGTCTTA` is reported as 0.0854.
With `CGTTCTGC` the E-score was -0.17.
The E-score of `AACTCCCC` is reported as -0.0402.
With `TACAAAGA` the E-score was 0.324.
`ACGGTGAA` gave an E-score of 0.114.
`CCCTAATC` gave an E-score of -0.102.
The E-score of `TTCGAGAA` is reported as 0.0918.
For `GAGAAACC`, the E-score was -0.2.

Study 5 — target: CCNB3, cyclin fold, Cln2 fusion (human); method: yeast growth competition, sequencing; matrix: yeast; notes: weak parent motif; baseline: not given; direction: higher = stronger binding
Starting sequence: KIF20B docking peptide (human); KRAKRKLYTSEIS; partner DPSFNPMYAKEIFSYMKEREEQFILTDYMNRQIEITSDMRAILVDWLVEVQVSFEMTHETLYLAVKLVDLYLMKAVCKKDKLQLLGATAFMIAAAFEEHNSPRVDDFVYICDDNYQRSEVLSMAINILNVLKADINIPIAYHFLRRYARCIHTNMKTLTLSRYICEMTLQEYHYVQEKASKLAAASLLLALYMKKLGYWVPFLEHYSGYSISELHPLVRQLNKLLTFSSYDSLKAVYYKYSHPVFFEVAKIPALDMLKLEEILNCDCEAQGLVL
For `L7A`, “normalised enrichment score” read 0.119.
`R5A` — result for “normalised enrichment score”: -0.435.
For `K1A`, “normalised enrichment score” read 0.249.
Under “normalised enrichment score”, `S10A` is recorded as -0.31.
`K6A`: “normalised enrichment score” 0.352.
`I12A` — result for “normalised enrichment score”: 0.36.

Study 6 — target: TEF, bZIP domain (human); method: DHFR protein complementation; matrix: yeast; baseline: wild-type JUN-FOS pair; direction: higher = stronger binding
Notes: single substitutions, most at no-binding floor
Starting sequence: JUN, bZIP domain (human); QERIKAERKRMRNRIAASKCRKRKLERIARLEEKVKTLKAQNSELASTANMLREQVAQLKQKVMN; partner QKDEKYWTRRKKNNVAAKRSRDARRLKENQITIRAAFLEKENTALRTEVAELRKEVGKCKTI
With `V35S` the binding fitness was -1.47 natural log.
For `A46G`, the binding fitness was -1.47 natural log.
`L45R` gave a binding fitness of -1.51 natural log.
For `A46E`, the binding fitness was -1.51 natural log.
`N42Q` has a binding fitness of -1.56 natural log.
For `A46N`, the binding fitness was -1.52 natural log.
`L59H` has a binding fitness of -1.5 natural log.
With `R30Q` the binding fitness was -1.57 natural log.
With `A29S` the binding fitness was -1.33 natural log.
The binding fitness of `K39W` is reported as -1.44 natural log.
`K34W` gave a binding fitness of -1.5 natural log.
The binding fitness of `R53D` is reported as -1.49 natural log.
For `L52Q`, the binding fitness was -1.57 natural log.
With `A40H` the binding fitness was -1.43 natural log.
With `Q55P` the binding fitness was -1.5 natural log.

Excerpt of the above (study 6):
`L45R` gave a binding fitness of -1.51 natural log.
For `A46E`, the binding fitness was -1.51 natural log.
`N42Q` has a binding fitness of -1.56 natural log.
For `A46N`, the binding fitness was -1.52 natural log.
`L59H` has a binding fitness of -1.5 natural log.
With `R30Q` the binding fitness was -1.57 natural log.
With `A29S` the binding fitness was -1.33 natural log.
The binding fitness of `K39W` is reported as -1.44 natural log.
`K34W` gave a binding fitness of -1.5 natural log.
The binding fitness of `R53D` is reported as -1.49 natural log.
For `L52Q`, the binding fitness was -1.57 natural log.
With `A40H` the binding fitness was -1.43 natural log.
With `Q55P` the binding fitness was -1.5 natural log.
